Results collected from several papers.
Compare with care: the assays were run in different laboratories. “And” joins repeats or separate records; there may be more than shown. Numbers after ± are the reported error.

Compound | cell line | assay | setting | EC50
O=C(Nc1cncc(-c2nc3ccccc3o2)c1)c1ccc(N2CCNCC2)c([N+](=O)[O-])c1 | J774.A1 | cytotoxicity |  | 0.9 µM
Cc1ccc(C=NNC(=O)C2CC(=O)N(c3ccc(F)cc3F)C2)cc1 (stereo not shown) | PPC-1 | cell viability, MTT | 72 h | 2.5 ± 0.6 µM
CCOC(=O)C1=C(C)NC2=C(C(=O)CC(c3ccc(Cl)c(OC)c3)C2)C1c1ccc(Cl)cc1C (mixture of isomers) | J774.A1 | cytotoxicity |  | > 20 µM
Cc1nn(-c2nc3c(F)cc(F)cc3s2)c(O)c1C(c1ccccc1C(=O)O)c1c(C)nn(-c2nc3c(F)cc(F)cc3s2)c1O | THP1-Dual | IFNB1 luciferase reporter, inhibitor | together with: HT-DNA | > 20 µM
Cc1ccc(-c2nc3ccccc3s2)cc1NC(=O)c1cc([N+](=O)[O-])c(N2CC3(CNC3)C2)cc1Cl | J774.A1 | cytotoxicity |  | 3.9 µM
CCCC1=C(C(=O)OCC)C(c2ccccc2Cl)C2=C(CC(c3ccc(OC)c(OC)c3)CC2=O)N1 (stereo not shown) | J774.A1 | cytotoxicity |  | > 20 µM
COc1cnc2cccc(N3CCc4c(cc(Cn5ccnc5C)cc4-c4cn(C)nc4C(F)(F)F)C3=O)c2c1 | HLC1 | cell growth, inhibitor | 120 h | 6.87 µM
O=C(Nc1cncc(-c2nc3ccccc3o2)c1)c1cc([N+](=O)[O-])c(F)cc1F | J774.A1 | cytotoxicity |  | 1.7 µM
CC(C)C[C@H](NC(=O)[C@H](Cc1ccccc1)NC(=O)c1cnccn1)B(O)O | BRD4-HiBiT cells | BRD4 degradation rescue, inhibitor | 8 h, together with: dBET6 500 nM | 0.0849 µM
O=C(Nc1cncc(-c2nc3ccccc3s2)c1)c1cc([N+](=O)[O-])c(F)cc1Cl | J774.A1 | cytotoxicity |  | 1.3 µM
CCOC(=O)C1=C(C)NC2=C(C(=O)CC(c3ccc(OC)c(OC)c3)C2)C1c1ccc(Cl)cc1C (stereo not shown) | J774.A1 | cytotoxicity |  | > 20 µM
CCn1cc(-c2cc(Cn3ccnc3)cc3c2CCN([C@H](c2cc(OC)ccn2)C2CC2)C3=O)c(C(F)(F)F)n1 | HEC265 | cell growth | 120 h | 0.648 µM
Nc1cccc2c1CN(C1CCC(=O)NC1=O)C2=O (stereo not shown) | BRD4-HiBiT cells | BRD4 degradation rescue, inhibitor | 24 h, 50% degradation rescued, together with: dBET6 500 nM | 1.92 µM
CCN(N=Cc1ccc(Br)cc1)C(=O)C1CC(=O)N(c2ccc(F)cc2F)C1 (stereo not shown) | PPC-1 | cell viability, MTT | 72 h | 28.9 ± 3.1 µM
Cc1ccc(-c2nc3ccccc3s2)cc1NC(=O)c1cc([N+](=O)[O-])c(N(C)CCN(C)C)cc1Cl | J774.A1 | cytotoxicity |  | 1.5 µM
Cc1nn(-c2nc3ccccc3[nH]2)c(O)c1C(c1ccccc1C(=O)O)c1c(C)nn(-c2nc3ccccc3[nH]2)c1O | THP1-Dual | IFNB1 luciferase reporter, inhibitor | together with: HT-DNA | > 20 µM
COc1ccc(S(=O)(=O)Nc2ccc(NS(=O)(=O)c3ccc(OC)cc3)c3ccccc23)cc1 | SH-SY5Y Neh2-luc | reporter gene | 3 h | > 30 µM
Cc1nn(-c2nc3c(F)cc(F)cc3s2)c(O)c1C(c1ccccc1C(F)(F)F)c1c(C)nn(-c2nc3c(F)cc(F)cc3s2)c1O | THP1-Dual | IFN reporter gene, inhibitor | together with: HT-DNA | 18.4 µM and 17.9 µM and 18.6 µM
CCCC1=C(C(=O)OCC)C(c2ccc(Cl)cc2C)C2=C(CC(c3ccc(Cl)c(OC)c3)OC2=O)N1 (mixture of isomers) | J774.A1 | cytotoxicity |  | > 20 µM

Compound | cell line | assay | setting | EC50
N#Cc1ccc(N2CCN(Cc3ccc(COc4cccc5c4CN([C@H]4CCC(=O)NC4=O)C5=O)cc3)CC2)c(F)c1 | BRD4-HiBiT cells | BRD4 degradation rescue, inhibitor | 6 h, together with: dBET6 | 0.026 µM
CCOC(=O)C1=C(C)NC2=C(C(=O)OC(c3ccc(OC)c(OC)c3)C2)C1c1ccccc1C (stereo not shown) | J774.A1 | cytotoxicity |  | > 20 µM
Cc1cc(OCc2nnc(SC3CCCC3)n2-c2cccnc2)ccc1-c1ccc(S(C)(=O)=O)cc1 | BRD4-HiBiT cells | BRD4 degradation rescue, inhibitor | 24 h, 50% degradation rescued, together with: dBET6 500 nM | 5.66 µM
O=C(Nc1ccc(Cl)c(Cl)c1)c1cc([N+](=O)[O-])c(F)cc1Cl | J774.A1 | cytotoxicity |  | 1.8 ± 0.6 µM
NS(=O)(=O)OC[C@H]1C[C@@H](Nc2ccnc3cc(-c4cccc(SC(F)(F)F)c4)nn23)[C@H](O)[C@@H]1O | BRD4-HiBiT cells | BRD4 degradation rescue, inhibitor | 8 h, 50% degradation rescued, together with: dBET6 500 nM | 0.285 µM
CCOC(=O)C1=C(C)NC2=C(C(=O)OC(c3ccc(OC)c(OC)c3)C2)C1c1ccc(Cl)cc1C (mixture of isomers) | J774.A1 | cytotoxicity |  | > 20 µM
COc1cc(-c2oc3cc(O)cc(O)c3c(=O)c2O[C@@H]2O[C@H](CO)[C@@H](O)[C@H](O)[C@H]2O)ccc1O | HepG2-ARE-Luc | Nrf2-ARE reporter gene, activator |  | 0.28 µM
CC(C)C[C@H](NC(=O)CNC(=O)c1cc(Cl)ccc1Cl)B(O)O | BRD4-HiBiT cells | BRD4 degradation rescue, inhibitor | 4 h, 50% degradation rescued, together with: dBET6 500 nM | 0.196 µM
O=C(NN=Cc1ccc(Cl)cc1)C1CC(=O)N(c2ccc(F)cc2F)C1 (stereo not shown) | PPC-1 | cell viability, MTT | 72 h | 36.6 ± 6.1 µM
CCOC(=O)C1=C(C)NC2=C(C(=O)OC(c3ccc(OC)c(OC)c3)C2)C1c1cccc(OC)c1 (stereo not shown) | J774.A1 | cytotoxicity |  | > 20 µM
CCn1cc(-c2cc(Cn3ccoc3=N)cc3c2CCN([C@@H](C)c2cc(OC)ccn2)C3=O)c(C(F)(F)F)n1 | NCI-H1650 | cell growth, inhibitor | 120 h | 0.145 µM
Cc1ccc(-c2nc3ccccc3o2)cc1NC(=O)c1cc([N+](=O)[O-])c(N2CCNCC2)cc1Cl | J774.A1 | cytotoxicity |  | 0.6 µM
CC[C@H](C)[C@H](NC(=O)[C@H](CCC(=O)O)NC(=O)[C@H](CC(=O)O)NC(=O)CNC(=O)[C@H](CC(C)C)NC(=O)[C@H](CCCNC(=N)N)NC(=O)[C@H](CCCNC(=N)N)NC(=O)[C@H](CC(C)C)NC(=O)CNC(=O)[C@H](CCC(N)=O)NC(=O)[C@@H](NC(=O)[C@H](CCSC)NC(=O)[C@H](Cc1c[nH]c2ccccc12)NC(=O)[C@@H](NC(=O)[C@H](CCC(=O)O)NC(=O)[C@@H]1CCCN1C(=O)[C@H](CCCNC(=N)N)NC(C)=O)[C@@H](C)CC)[C@@H](C)O)C(=O)N[C@@H](CC(N)=O)C(=O)N[C@@H](C)C(=O)N[C@@H](Cc1ccc(O)cc1)C(=O)N[C@@H](Cc1ccc(O)cc1)C(=O)N[C@@H](C)C(=O)N[C@@H](CCCNC(=N)N)C(N)=O | KMS-34 | mitochondrial depolarization, BH3 profiling JC-1 | 3 h | 3.3 ± 1.7 µM
Cc1nn(-c2nc3c(F)cc(F)cc3s2)c(O)c1C(c1cccc(C(F)(F)F)c1)c1c(C)nn(-c2nc3c(F)cc(F)cc3s2)c1O | THP1-Dual | IFN reporter gene, inhibitor, luciferase reporter | together with: HT-DNA | 15.9 µM
O=c1c(O)c(-c2ccc(O)c(O)c2)oc2cc(O)cc(O)c12 | HepG2-ARE-Luc | Nrf2-ARE reporter gene, activator |  | 9.3 µM
Cc1ccc(-c2nc3ccccc3s2)cc1NC(=O)c1cc([N+](=O)[O-])c(F)cc1F | J774.A1 | cytotoxicity |  | 3.1 µM
O=C(NN=Cc1ccc(Br)cc1)C1CC(=O)N(c2ccc(F)cc2F)C1 (stereo not shown) | PPC-1 | cell viability, MTT | 72 h | 27.3 ± 2.3 µM
CCOC(=O)C1=C(C)NC2=C(C(=O)OC(c3ccc(OC)c(OC)c3)C2)C1c1ccccc1Cl (stereo not shown) | J774.A1 | cytotoxicity |  | > 20 µM

Some of these lines once more:
Compound | cell line | assay | setting | EC50
Cc1nn(-c2nc3c(F)cc(F)cc3s2)c(O)c1C(c1cccc(C(F)(F)F)c1)c1c(C)nn(-c2nc3c(F)cc(F)cc3s2)c1O | THP1-Dual | IFN reporter gene, inhibitor, luciferase reporter | together with: HT-DNA | 15.9 µM
O=c1c(O)c(-c2ccc(O)c(O)c2)oc2cc(O)cc(O)c12 | HepG2-ARE-Luc | Nrf2-ARE reporter gene, activator |  | 9.3 µM
Cc1ccc(-c2nc3ccccc3s2)cc1NC(=O)c1cc([N+](=O)[O-])c(F)cc1F | J774.A1 | cytotoxicity |  | 3.1 µM
